Experimental data collected from several papers.
Protocols differ between the studies behind these lines. Several values in a cell are separate wells, animals, samples, runs or records. ± gives the spread as reported.
Target: Receptor tyrosine-protein kinase erbB-2 (ERBB2, Homo sapiens, UniProt P04626)

Structure (SMILES) | assay | setting | endpoint | value
COc1ccc(-c2oc3ncnc(NCc4ccccc4)c3c2-c2ccc(OC)cc2)cc1 | binding, competition with immobilised ligand |  | Kd | 7000 nM
Cc1ccc(-c2nn(-c3ccc(S(C)(=O)=O)cc3)cc2/C=N/N=C2/NC(=O)CS2)cc1 | enzyme activity, inhibitor, ATP luminescence |  | IC50 | 32 nM
C=CC(=O)N1CCc2ccc(-n3c(=O)ccc4cnc5ccc(-c6cnn(C)c6)cc5c43)cc21 | enzyme activity, inhibitor |  | IC50 | 8530 nM
CN(C1COC1)C(C)(C)/C=C(\C#N)C(=O)N1CCC[C@H]1Cn1nc(-c2ccc(Oc3ccccc3)cc2F)c2c(N)ncnc21 | enzyme activity, inhibitor |  | IC50 | > 3000 nM
NS(=O)(=O)c1ccc(-n2c(SCC(=O)Nc3ccccc3F)nc3cc4ccccc4cc3c2=O)cc1 | kinase activity, inhibitor |  | IC50 | 69 ± 15 nM
Cc1ccc2oc(-c3c4c(N)n[nH]c(=O)c4nn3-c3ccc(NC(=O)/C=C/CN(C)C)cc3)c(C)c2c1 | enzyme activity, inhibitor, ELISA |  | IC50 | > 1000 nM
CCN1CCC2(CC1)C/C(=N\NC(=O)Nc1ccccc1)c1ccccc1O2 | enzyme activity, inhibitor |  | IC50 | 210 nM
C#Cc1cccc(Nc2ncnc3cc(OC)c(OCCCN4CCOCC4)cc23)c1 | kinase activity, inhibitor | with: ATP 80.8 µM | IC50 | 90.8 nM and 90 nM
COc1ccc(NC(=O)N/N=C2\CC3(CCN(C)CC3)Oc3ccccc32)cc1 | enzyme activity, inhibitor |  | IC50 | 85 nM
Cc1cc(N2CCN(C(=O)CN3CCN(c4ccccc4)CC3)CC2)n2ncnc2n1 | inhibitor |  | IC50 | 210 nM

Some of these lines once more:
Structure (SMILES) | assay | setting | endpoint | value
NS(=O)(=O)c1ccc(-n2c(SCC(=O)Nc3ccccc3F)nc3cc4ccccc4cc3c2=O)cc1 | kinase activity, inhibitor |  | IC50 | 69 ± 15 nM
